Published values pooled from the literature.
Each line is one published result; not all experiments were run side by side. Values joined by “and” are separate records of one study, mostly repeats; a detail may differ. Numbers after ± are the reported error. Converted amounts (≈) assume the structure as drawn.

SMILES	organism	assay	test system	setting	how to read	quantity	result
Cc1ccn2c(C(=O)NCc3ccccc3)c(C)nc2c1	Mycobacteroides abscessus	RFP fluorescence	ATCC 19977, RFP reporter	–	–	MIC90	> 100 µM
Cc1cccc2c1N(C(=O)n1ccnn1)CC2	Arabidopsis thaliana	–	wild type, seeds	100 µM, high ambient temperature	–	germination rate	0% and 4.5% and 50% and 65.1% and 16.1% and 7.7%
CC(=O)OC[C@H]1O[C@@H](Sc2sc(C(=O)c3ccc(Br)cc3)c(N)c2-c2nc3ccccc3s2)[C@H](OC(C)=O)[C@@H](OC(C)=O)[C@H]1OC(C)=O	human alphaherpesvirus 1	plaque reduction	–	non-toxic concentration	–	viral titre reduction	40%
Nc1nc(-c2ccccc2)nc2[nH]nc(Nc3cccc(Cl)c3)c12	Human rhinovirus 8	cytopathic effect, inhibitor	HeLa	–	–	IC50	44.6 µM
Cc1c(CN(C)C(=O)/C=C/c2cnc3c(c2)CC(N)C(=O)N3)oc2ccccc12 (centres unmarked)	Enterobacter cloacae	broth microdilution	ATCC 29893	–	–	MIC	8 µg/mL (≈ 20.5 µM)
Nc1ncnc2[nH]nc(Nc3ccc(F)c(F)c3)c12	Human rhinovirus 8	cytopathic effect, inhibitor	HeLa	–	–	IC50	27.1 µM
CCC1(CC)CC(=O)N(C2c3cc(C(=O)NC4c5ccccc5CC4O)ccc3OC2(C)COC)C(=N)N1 (centres unmarked)	Plasmodium falciparum	standard membrane feeding	NF54 stage V gametocytes	25 nM	–	mosquito midgut oocyst incidence	decreased
Cc1nc2cc(OC(F)(F)F)ccn2c1C(=O)NCc1ccc2oc(-c3ccc(Cl)cc3)nc2c1	Mycobacteroides abscessus	RFP fluorescence	ATCC 19977, RFP reporter	–	–	MIC90	> 100 µM
Nc1nc(-c2ccccc2)nc2[nH]nc(Nc3ccccc3F)c12	Human rhinovirus 8	cytopathic effect, inhibitor	HeLa	–	–	IC50	13.8 µM
CCc1nc2ccc(OC(F)(F)F)cn2c1C(=O)NCc1ccc2oc(-c3ccc(OC(F)(F)F)cc3)nc2c1	Mycobacteroides abscessus	RFP fluorescence	ATCC 19977, RFP reporter	–	–	MIC90	> 50 µM
C=C(NC(=O)c1csc(-c2nc3c(cc2O)-c2nc(cs2)C(=O)NC(C(C)O)C(=O)NC(=C(C)OC)c2nc(cs2)C(=O)NC2c4nc(cs4)C(=O)NC(COC(=O)c4c5c6c(cccc6n4O)COC(=O)C(OC4CC(C)(O)C(N(C)C)C(C)O4)C2OC5)c2nc-3cs2)n1)C(N)=O (centres unmarked)	Enterococcus faecium	–	-9 vancomycin-intermediate, mice, systemic infection	intravenous, 2 and 8 h post-infection, survival over 7 days	–	ED50	0.98 mg/kg
COC1C=COC2(C)Oc3c(C)c(O)c4c(c3C2=O)C2=NC3(CCN(CC(C)C)CC3)NC2=C(NC(=O)C(C)=CC=CC(C)C(O)C(C)C(O)C(C)C(OC(=O)Nc2cccnn2)C1C)C4=O (centres unmarked)	Mycobacteroides abscessus	bacterial growth	subsp. abscessus Bamboo	–	–	IC90	0.1 µM
Cc1nc2ccc(Br)cn2c1C(=O)NCc1ccc2oc(-c3ccc(OC(F)(F)F)cc3)nc2c1	Mycobacteroides abscessus	RFP fluorescence	ATCC 19977, RFP reporter	–	–	MIC90	> 50 µM
OC(Cn1cncn1)(Cn1cc(-[c-]2cccc2)nn1)c1ccc(F)cc1F.[Cl-].[Co+3].c1cc[cH-]c1 (racemic)	Trichuris muris	Worminator	adult males and females	100 µM, day 3	–	motility inhibition	15%
CC1CC2(N=CCS2)C2(O)OC3CC4(C)C(CC3OC2O1)CC1OC12C4C(O)C(=O)C1(C)C(C3=CC(=O)OC3)CCC12O (centres unmarked)	Oncopeltus fasciatus	–	–	diet, concentration not given	–	hatchlings per female	120
CC(=O)O[C@@H]1[C@@H](OC(C)=O)[C@H](Sc2sc(C(=O)c3ccc(Br)cc3)c(N)c2-c2nc3ccccc3s2)OC[C@H]1OC(C)=O	human alphaherpesvirus 1	plaque reduction	–	non-toxic concentration	–	viral titre reduction	80%

SMILES	organism	assay	test system	setting	how to read	quantity	result
CC(C)[C@H]1NC(=O)[C@H](Cc2ccccc2)NC(=O)[C@@H](C(C)C)NC(=O)[C@@H](C)NC(=O)[C@H](CO)NC(=O)[C@@H](Cc2c[nH]c3ccccc23)NC(=O)[C@@H](CO)NC1=O	Mycolicibacterium smegmatis	–	–	–	–	MIC90	> 100 µM
CNCc1ccc2c(c1)C[C@H](CNC(=N)N)[C@H]2NC(=O)C(=O)Nc1ccc(Cl)c(F)c1	HIV-1	viral infection, Env pseudovirus neutralization	TZM-bl, CRF01_AE	–	–	IC80	> 100 µM
CCc1ccc(-c2nc(N)c3c(Nc4ccccc4)n[nH]c3n2)cc1	Human rhinovirus 8	cytopathic effect, inhibitor	HeLa	–	–	IC50	3.18 µM
CC1(C)CC(=O)c2c(C(F)(F)F)nn(-c3ccc(C(N)=O)c(N[C@H]4CC[C@H](O)CC4)c3)c2C1	human alphaherpesvirus 1	viral replication	K26 GFP-expressing, 3D neonatal skin, submerged	48 h	–	IC50	0.06 ± 0.07 µM
CC(C)(C)NCC(SS(=O)(=O)O)c1ccccc1 (centres unmarked)	Schistosoma mansoni	perfusion day 44	infected Swiss Webster mice	600 mg/kg single dose, 1056 h, dosed day 7 post-infection	relative to: vehicle control	liver weight decrease	28%
Cc1cc(C(=O)Nc2nc3cccc(C)c3n2[C@H]2CCCCN(C(=O)/C=C/CN(C)C)C2)ccn1	Trypanosoma brucei brucei	–	Lister 427	16.67 µM, 0 h, kill kinetics	–	proliferation	100%
c1ccc(CN2CCOCCOCCN(CCCCCCCCCCCCN3CCOCCOCCN(CCCCCCCCCCCCN4CCOCCOCCN(Cc5ccccc5)CCOCCOCC4)CCOCCOCC3)CCOCCOCC2)cc1	Klebsiella pneumoniae	–	ATCC BAA-2146	half MIC, added: ciprofloxacin	–	FIC index	0.75
CCc1nc2ccc(Br)cn2c1C(=O)NCc1ccc2oc(-c3ccc(Cl)cc3)nc2c1	Mycobacteroides abscessus	RFP fluorescence	ATCC 19977, RFP reporter	–	–	MIC90	> 50 µM
Nc1nc(-c2ccccc2)nc2[nH]nc(Nc3cccc(C(F)(F)F)c3)c12	Human rhinovirus 8	cytopathic effect, inhibitor	HeLa	–	–	IC50	16.2 µM
Cc1nc2ccc(OC(F)(F)F)cn2c1C(=O)NCc1ccc2oc(-c3ccc(Cl)cc3)nc2c1	Mycobacteroides abscessus	RFP fluorescence	ATCC 19977, RFP reporter	–	–	MIC90	> 100 µM
Cc1ccc(Nc2n[nH]c3nc(-c4ccc(F)cc4)nc(N)c23)cc1	Human rhinovirus 8	cytopathic effect, inhibitor	HeLa	–	–	IC50	26.3 µM
Nc1ncnc2c1ncn2[C@@H]1O[C@H](CSCc2cccc(C(=O)O)c2)[C@@H](O)[C@H]1O	murine hepatitis virus	viral replication	A59	16 h	–	EC50	> 200 µM
CN(C)c1ccc(Nc2n[nH]c3nc(-c4ccccc4)nc(N)c23)cc1	Human rhinovirus 8	cytopathic effect, inhibitor	HeLa	–	–	IC50	36.5 µM
O=[N+]([O-])c1cc(Br)cc([N+](=O)[O-])c1NS(=O)(=O)c1ccc(Br)cc1	Arabidopsis thaliana wild type	–	–	10 µM	–	germination rate	> 90%
Nc1nc(-c2ccccc2)nc2[nH]nc(Nc3c(F)cc(F)cc3F)c12	Human rhinovirus 8	cytopathic effect, inhibitor	HeLa	–	–	IC50	11.5 µM
CC(=O)OC[C@H]1O[C@@H](Sc2sc(C(=O)c3ccc(Cl)cc3)c(N)c2-c2nc3ccccc3s2)[C@H](OC(C)=O)[C@@H](OC(C)=O)[C@@H]1OC(C)=O	human alphaherpesvirus 1	plaque reduction	–	non-toxic concentration	–	viral titre reduction	10%

Repeated from above:
SMILES	organism	assay	test system	setting	how to read	quantity	result
CC1(C)CC(=O)c2c(C(F)(F)F)nn(-c3ccc(C(N)=O)c(N[C@H]4CC[C@H](O)CC4)c3)c2C1	human alphaherpesvirus 1	viral replication	K26 GFP-expressing, 3D neonatal skin, submerged	48 h	–	IC50	0.06 ± 0.07 µM
Cc1c(CN(C)C(=O)/C=C/c2cnc3c(c2)CC(N)C(=O)N3)oc2ccccc12 (centres unmarked)	Enterobacter cloacae	broth microdilution	ATCC 29893	–	–	MIC	8 µg/mL (≈ 20.5 µM)
CC(C)[C@H]1NC(=O)[C@H](Cc2ccccc2)NC(=O)[C@@H](C(C)C)NC(=O)[C@@H](C)NC(=O)[C@H](CO)NC(=O)[C@@H](Cc2c[nH]c3ccccc23)NC(=O)[C@@H](CO)NC1=O	Mycolicibacterium smegmatis	–	–	–	–	MIC90	> 100 µM
